# Measured values collected from several papers.
# A part holds a random share of what one study measured.
# UniProt Q8IVH8, sequence (whole entry, looked up): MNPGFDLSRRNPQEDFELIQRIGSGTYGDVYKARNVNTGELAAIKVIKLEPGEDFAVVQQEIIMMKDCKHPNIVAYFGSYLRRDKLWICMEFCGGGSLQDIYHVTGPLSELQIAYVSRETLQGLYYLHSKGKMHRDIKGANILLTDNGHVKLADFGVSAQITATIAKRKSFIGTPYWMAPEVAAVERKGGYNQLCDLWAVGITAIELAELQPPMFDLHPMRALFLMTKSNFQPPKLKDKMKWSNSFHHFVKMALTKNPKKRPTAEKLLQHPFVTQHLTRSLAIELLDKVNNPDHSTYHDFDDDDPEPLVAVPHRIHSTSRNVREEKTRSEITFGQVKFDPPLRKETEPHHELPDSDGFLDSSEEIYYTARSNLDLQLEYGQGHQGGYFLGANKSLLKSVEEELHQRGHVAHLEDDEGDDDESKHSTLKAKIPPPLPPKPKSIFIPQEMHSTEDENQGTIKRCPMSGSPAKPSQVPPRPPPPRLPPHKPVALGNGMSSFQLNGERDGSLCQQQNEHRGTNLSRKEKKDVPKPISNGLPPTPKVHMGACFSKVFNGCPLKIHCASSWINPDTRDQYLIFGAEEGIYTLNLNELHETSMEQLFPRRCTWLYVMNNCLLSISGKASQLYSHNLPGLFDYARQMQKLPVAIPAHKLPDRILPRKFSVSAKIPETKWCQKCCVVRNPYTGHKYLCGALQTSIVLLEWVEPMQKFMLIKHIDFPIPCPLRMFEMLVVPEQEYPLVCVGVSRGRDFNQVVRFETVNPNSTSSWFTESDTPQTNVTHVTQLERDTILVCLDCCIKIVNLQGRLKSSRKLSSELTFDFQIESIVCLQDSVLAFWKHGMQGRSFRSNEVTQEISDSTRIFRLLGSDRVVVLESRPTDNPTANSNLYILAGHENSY
# UniProt P08069, sequence (whole entry, looked up): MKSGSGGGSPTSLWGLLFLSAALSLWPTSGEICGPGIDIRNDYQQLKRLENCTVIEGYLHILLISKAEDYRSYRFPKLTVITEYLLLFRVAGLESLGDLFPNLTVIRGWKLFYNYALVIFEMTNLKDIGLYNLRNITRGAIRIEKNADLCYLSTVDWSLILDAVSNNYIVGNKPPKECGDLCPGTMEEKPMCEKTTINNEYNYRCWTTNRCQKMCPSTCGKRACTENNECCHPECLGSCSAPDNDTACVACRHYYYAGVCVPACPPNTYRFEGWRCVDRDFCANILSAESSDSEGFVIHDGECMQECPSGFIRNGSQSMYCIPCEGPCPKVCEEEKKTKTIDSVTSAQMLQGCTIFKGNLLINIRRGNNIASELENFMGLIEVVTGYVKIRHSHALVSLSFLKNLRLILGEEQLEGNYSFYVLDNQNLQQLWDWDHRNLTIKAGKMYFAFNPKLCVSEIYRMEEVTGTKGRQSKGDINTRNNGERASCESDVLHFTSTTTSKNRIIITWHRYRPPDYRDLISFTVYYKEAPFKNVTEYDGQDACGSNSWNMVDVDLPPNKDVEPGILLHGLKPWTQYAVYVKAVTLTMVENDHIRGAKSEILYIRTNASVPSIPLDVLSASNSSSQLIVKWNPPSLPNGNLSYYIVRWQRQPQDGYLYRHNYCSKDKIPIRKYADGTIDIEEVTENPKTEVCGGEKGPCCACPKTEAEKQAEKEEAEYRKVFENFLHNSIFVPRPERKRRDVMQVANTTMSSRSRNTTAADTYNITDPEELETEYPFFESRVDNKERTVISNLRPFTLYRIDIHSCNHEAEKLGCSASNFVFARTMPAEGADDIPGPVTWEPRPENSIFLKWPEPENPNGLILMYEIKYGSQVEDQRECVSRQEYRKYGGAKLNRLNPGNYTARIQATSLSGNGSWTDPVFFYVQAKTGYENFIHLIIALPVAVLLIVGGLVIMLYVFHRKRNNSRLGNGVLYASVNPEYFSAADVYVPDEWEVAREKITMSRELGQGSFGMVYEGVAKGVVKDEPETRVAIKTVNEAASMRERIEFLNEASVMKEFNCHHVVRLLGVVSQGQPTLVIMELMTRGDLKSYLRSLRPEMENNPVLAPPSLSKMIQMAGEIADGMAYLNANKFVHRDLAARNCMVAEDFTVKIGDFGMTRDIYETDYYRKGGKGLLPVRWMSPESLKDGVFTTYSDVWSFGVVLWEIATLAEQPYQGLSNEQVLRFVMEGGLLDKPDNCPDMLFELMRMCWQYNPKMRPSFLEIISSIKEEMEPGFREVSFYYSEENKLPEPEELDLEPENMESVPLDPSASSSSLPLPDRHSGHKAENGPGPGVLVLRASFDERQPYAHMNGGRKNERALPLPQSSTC
# UniProt P68400, sequence (whole entry, looked up): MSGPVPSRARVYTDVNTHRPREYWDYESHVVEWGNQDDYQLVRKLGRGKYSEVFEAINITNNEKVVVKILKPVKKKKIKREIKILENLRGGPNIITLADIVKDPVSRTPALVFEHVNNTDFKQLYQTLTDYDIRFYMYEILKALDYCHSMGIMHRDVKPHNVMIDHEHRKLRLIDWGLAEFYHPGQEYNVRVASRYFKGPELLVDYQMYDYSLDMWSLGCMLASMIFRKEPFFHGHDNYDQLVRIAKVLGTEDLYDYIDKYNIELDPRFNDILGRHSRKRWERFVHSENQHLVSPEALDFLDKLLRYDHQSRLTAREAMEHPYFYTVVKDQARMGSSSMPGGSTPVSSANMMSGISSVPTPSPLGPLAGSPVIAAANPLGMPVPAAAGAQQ
# UniProt Q99683, sequence (whole entry, looked up): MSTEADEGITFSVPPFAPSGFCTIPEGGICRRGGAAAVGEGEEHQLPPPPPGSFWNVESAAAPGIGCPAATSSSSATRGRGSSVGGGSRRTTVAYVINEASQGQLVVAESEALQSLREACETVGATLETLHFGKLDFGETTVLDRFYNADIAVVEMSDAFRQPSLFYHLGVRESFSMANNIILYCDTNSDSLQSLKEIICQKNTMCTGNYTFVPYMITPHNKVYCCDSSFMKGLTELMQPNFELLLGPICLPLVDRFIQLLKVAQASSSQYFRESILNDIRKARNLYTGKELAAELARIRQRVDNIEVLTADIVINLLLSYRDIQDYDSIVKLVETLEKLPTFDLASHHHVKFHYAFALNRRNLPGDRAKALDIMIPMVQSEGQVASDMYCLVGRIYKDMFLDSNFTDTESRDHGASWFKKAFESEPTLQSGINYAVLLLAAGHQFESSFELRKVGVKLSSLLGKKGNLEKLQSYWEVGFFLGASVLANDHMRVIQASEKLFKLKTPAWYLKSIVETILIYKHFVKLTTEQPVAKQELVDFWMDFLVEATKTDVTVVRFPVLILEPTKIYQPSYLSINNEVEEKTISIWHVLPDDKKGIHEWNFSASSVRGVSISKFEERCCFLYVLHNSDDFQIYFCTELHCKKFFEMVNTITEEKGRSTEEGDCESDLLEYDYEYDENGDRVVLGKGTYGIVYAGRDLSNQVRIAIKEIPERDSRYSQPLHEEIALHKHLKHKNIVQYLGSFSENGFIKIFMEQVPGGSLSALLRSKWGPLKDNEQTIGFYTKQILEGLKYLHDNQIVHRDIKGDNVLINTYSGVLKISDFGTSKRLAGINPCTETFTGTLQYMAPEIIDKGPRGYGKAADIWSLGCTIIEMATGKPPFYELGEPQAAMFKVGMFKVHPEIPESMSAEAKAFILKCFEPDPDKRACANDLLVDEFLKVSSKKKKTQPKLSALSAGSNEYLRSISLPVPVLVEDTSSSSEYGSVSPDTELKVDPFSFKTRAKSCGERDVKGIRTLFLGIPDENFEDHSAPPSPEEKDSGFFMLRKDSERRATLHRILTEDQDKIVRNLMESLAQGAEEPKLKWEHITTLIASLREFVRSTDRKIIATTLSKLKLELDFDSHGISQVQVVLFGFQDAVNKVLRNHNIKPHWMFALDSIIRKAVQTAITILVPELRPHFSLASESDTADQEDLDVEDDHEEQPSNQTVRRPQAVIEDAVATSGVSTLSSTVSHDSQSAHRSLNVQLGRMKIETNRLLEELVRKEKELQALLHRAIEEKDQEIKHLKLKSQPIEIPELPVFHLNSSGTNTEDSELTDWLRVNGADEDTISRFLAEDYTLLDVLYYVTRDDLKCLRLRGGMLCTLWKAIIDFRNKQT
# UniProt P49840, sequence (whole entry, looked up): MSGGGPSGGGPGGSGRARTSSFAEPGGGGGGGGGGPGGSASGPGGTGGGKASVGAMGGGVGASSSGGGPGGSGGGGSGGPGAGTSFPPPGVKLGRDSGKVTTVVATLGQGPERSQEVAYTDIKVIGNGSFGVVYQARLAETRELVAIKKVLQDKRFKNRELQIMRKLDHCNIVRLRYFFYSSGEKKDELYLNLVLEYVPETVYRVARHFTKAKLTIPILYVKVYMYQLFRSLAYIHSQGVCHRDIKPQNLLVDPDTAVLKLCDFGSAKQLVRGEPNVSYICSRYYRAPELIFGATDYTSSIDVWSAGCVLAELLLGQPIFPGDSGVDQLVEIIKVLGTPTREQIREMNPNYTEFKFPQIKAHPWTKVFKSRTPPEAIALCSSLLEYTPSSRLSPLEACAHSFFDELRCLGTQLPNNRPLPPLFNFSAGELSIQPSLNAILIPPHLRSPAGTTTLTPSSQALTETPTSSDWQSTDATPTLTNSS

# Set 1 — effect on: cell-free assay; method: competition with immobilised ligand; tested at: 1 µM
# SMILES: CN(c1ccnc(CNc2nc(Nc3ccc4c(c3)CC(=O)N4)ncc2C(F)(F)F)n1)S(C)(=O)=O
target,remaining binding
"MAP3K5 (Homo sapiens, UniProt Q99683)",100%
"CDK5 (Homo sapiens, UniProt Q00535)",79%
"PLK3 (Homo sapiens, UniProt Q9H4B4)",1.7%
"GRK2 (Homo sapiens, UniProt P25098)",31%
"GSK3A (Homo sapiens, UniProt P49840)",64%
"MAPK6 (Homo sapiens, UniProt Q16659)",66%
"EPHB3 (Homo sapiens, UniProt P54753)",95%
"PIM1 (Homo sapiens, UniProt P11309)",79%
"CSNK2A1 (Homo sapiens, UniProt P68400)",26%
"MAP4K3 (Homo sapiens, UniProt Q8IVH8)",87%
"PRKACB (Homo sapiens, UniProt P22694)",88%
"TYRO3 (Homo sapiens, UniProt Q06418)",99%
"ACVR2B (Homo sapiens, UniProt Q13705)",73%
"BRAF (Homo sapiens, UniProt P15056)",82%
"SRPK3 (Homo sapiens, UniProt Q9UPE1)",11%
"MATK (Homo sapiens, UniProt P42679)",65%
"LIM domain kinase 1 (LIMK1, Homo sapiens, UniProt P53667)",97%
"FLT3 (Homo sapiens, UniProt P36888, R834Q)",30%

# Set 2 — effect on: enzyme activity; action: inhibitor; tested at: 10 µM
# Target: Calcium/calmodulin-dependent protein kinase type II subunit alpha (CAMK2A, Homo sapiens, UniProt Q9UQM7)
# UniProt Q9UQM7, sequence (whole entry, looked up): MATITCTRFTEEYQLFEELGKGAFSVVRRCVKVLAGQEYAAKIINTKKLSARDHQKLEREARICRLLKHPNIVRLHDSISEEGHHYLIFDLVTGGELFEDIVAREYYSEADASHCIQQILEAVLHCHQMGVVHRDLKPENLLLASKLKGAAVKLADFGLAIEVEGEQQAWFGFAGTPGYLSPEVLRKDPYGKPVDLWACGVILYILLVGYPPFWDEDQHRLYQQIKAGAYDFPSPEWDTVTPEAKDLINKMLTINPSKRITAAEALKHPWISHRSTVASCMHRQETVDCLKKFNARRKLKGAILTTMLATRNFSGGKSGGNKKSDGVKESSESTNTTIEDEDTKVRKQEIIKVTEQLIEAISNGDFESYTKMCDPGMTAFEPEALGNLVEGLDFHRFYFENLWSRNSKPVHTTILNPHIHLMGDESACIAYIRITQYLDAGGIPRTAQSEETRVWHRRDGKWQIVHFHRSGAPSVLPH
SMILES,inhibition [%]
CCOC(=O)n1ccn(C)c1=S,-18
C=C[C@@H]1CNC(=S)O1,-15
C[C@H](CCC(=O)O)[C@H]1CC[C@H]2[C@@H]3C=CC4=CC(=O)CC[C@]4(C)[C@H]3CC[C@]12C,-15
O=c1cc(CO)occ1O,-17
COc1cc(/C=C/c2cc(O)cc(O)c2)ccc1O,-23
C[C@@H]1C/C=C/C=C/C=C/C=C/[C@H](O[C@@H]2O[C@H](C)[C@@H](O)[C@H](N)[C@@H]2O)C[C@@H]2O[C@](O)(C[C@@H](O)C[C@H]3O[C@@H]3/C=C/C(=O)O1)C[C@H](O)[C@H]2C(=O)O,-19
CCCCOc1ccc(OCCCN2CCOCC2)cc1,-4
NC[C@H]1O[C@H](O[C@H]2[C@H](O)[C@@H](O[C@H]3O[C@H](CO)[C@@H](O)[C@H](N)[C@H]3O)[C@H](N)C[C@@H]2N)[C@H](N)C[C@@H]1O,13
COC(=O)[C@@]12OC[C@]34[C@H]([C@@H](O)[C@@H]1O)[C@@]1(C)CC(=O)C(O)=C(C)[C@@H]1C[C@H]3OC(=O)[C@H](OC(=O)CC(C)C)[C@@H]24,16
CCCCCC/C=C\CCCCCCCc1cccc(O)c1C(=O)O,-53
C=C(C)[C@H](C)c1cc(/C=C/C(=O)c2ccc(O)cc2)c(OC)cc1O,-11
Nc1ncnc2c1ncn2CCOCP(=O)(O)O,-8
CC(C)[C@H](C)CC[C@@H](C)[C@H]1CC[C@H]2[C@@H]3CC=C4C[C@@H](O)CC[C@]4(C)[C@H]3CC[C@]12C,33
CCCCCC1CCCC(=O)O1 (stereo not drawn),-16

# Set 3 — action: inhibitor
# Compound: Cc1nc(Nc2ncc(C(=O)Nc3c(C)cccc3Cl)s2)cc(N2CCN(CCO)CC2)n1
target,conditions,inhibition [%]
"STK32C (Homo sapiens, UniProt Q86UX6)",1 µM,< 50
"IGF1R (Homo sapiens, UniProt P08069)",1 µM,< 50
"EIF2AK2 (Homo sapiens, UniProt P19525)",10 µM,< 50
"NEK5 (Homo sapiens, UniProt Q6P3R8)",10 µM,< 50
"CDKL2 (Homo sapiens, UniProt Q92772)",10 µM,< 50
"MAP4K3 (Homo sapiens, UniProt Q8IVH8)",10 µM,98
"ROCK1 (Homo sapiens, UniProt Q13464)",1 µM,< 50
"CAMK2B (Homo sapiens, UniProt Q13554)",10 µM,< 50

# Other studies, line by line — effect on: cell-free assay; tested at: 0.5 µM
# Target: Dual serine/threonine and tyrosine protein kinase (DSTYK, Homo sapiens, UniProt Q6XUX3)
# Sequence (Q6XUX3 1-929, as in one of the studies): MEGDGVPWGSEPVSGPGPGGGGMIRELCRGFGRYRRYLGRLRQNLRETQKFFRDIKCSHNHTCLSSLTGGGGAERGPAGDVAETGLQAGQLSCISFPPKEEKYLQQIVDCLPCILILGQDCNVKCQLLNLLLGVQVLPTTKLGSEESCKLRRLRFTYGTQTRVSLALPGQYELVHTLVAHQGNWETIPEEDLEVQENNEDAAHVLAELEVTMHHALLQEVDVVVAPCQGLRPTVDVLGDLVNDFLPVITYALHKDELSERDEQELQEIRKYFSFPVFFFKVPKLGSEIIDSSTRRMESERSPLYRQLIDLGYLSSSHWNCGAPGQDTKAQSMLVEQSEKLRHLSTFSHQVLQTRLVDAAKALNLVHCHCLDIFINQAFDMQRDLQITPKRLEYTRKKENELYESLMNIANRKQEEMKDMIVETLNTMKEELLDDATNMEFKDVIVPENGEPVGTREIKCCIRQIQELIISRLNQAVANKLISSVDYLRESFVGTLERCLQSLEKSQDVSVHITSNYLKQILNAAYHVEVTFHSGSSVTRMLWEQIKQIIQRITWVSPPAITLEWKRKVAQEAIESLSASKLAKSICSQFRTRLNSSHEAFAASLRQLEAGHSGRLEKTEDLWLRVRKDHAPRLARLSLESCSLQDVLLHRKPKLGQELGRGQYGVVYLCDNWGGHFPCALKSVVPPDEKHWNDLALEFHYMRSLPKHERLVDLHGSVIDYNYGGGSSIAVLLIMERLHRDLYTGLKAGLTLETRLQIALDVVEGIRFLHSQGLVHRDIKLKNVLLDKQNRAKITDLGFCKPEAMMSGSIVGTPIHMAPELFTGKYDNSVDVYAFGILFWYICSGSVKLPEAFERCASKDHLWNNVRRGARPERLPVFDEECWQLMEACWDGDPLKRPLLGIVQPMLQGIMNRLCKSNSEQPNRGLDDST
SMILES,remaining signal
Cc1ccc(NC(=O)c2ccc(CN3CCN(C)CC3)cc2)cc1Nc1nc(-c2cccnc2)cs1,92.4%
CCN(CC)CCNC(=O)c1c(C)[nH]c(/C=C2\C(=O)Nc3ccc(F)cc32)c1C,111%

# Some of these lines once more (set 1):
target,remaining binding
"MAPK6 (Homo sapiens, UniProt Q16659)",66%
"EPHB3 (Homo sapiens, UniProt P54753)",95%
"PIM1 (Homo sapiens, UniProt P11309)",79%
"CSNK2A1 (Homo sapiens, UniProt P68400)",26%
"MAP4K3 (Homo sapiens, UniProt Q8IVH8)",87%
